Assay results gathered from unrelated publications.
Numbered parts are unrelated; each lists some results of a single study.

Series 1
Target: Interferon regulatory factor 5, full length, phosphomimetic (IRF5, Homo sapiens, UniProt Q13568-2, residues 1-514, S451D/S453D/S456D/S462D)
Technique: protein-binding microarray
Form: double-stranded DNA, one strand shown
Medium: in vitro
Tested at: 940 nM top
Setting: 60-bp whole probe
Together with: salmon DNA 0.4 mg/ml
Relative to: random background probes
Direction: higher = stronger binding
Shared flanks, not repeated: GCCTAGCAC … GTCTTGATTCGCTTGACGCTGCTG
Oligonucleotide | fitted relative affinity
GACGGTTTCGGACTAGGGACGTGCTAG | 6.79 z-score
TCAGTTTTGTGTCTGGGACTGTGCTAG | 0.303 z-score
TTAGGTCTCGGTATCTGTTAGTGCTAG | 4.93 z-score
TCATATATACAAACTAAGACTGTGCTA | 0.529 z-score
GACGGTATACTTCTCCTGACGTGCTAG | -0.11 z-score
CCAGGCTGAAAGACCTCTGAGTGCTAG | -0.638 z-score

Series 2
Target: Histone acetyltransferase KAT6A, winged helix 1, GST fusion (KAT6A, Homo sapiens, UniProt Q92794, residues 1-85)
Technique: protein binding microarray
Form: double-stranded DNA, one strand shown
Medium: in vitro
Tested at: not given
Setting: 8-mer, flanks averaged, mean of 2 arrays, mostly near background
Relative to: not given
Direction: higher = stronger binding
Construct (chain): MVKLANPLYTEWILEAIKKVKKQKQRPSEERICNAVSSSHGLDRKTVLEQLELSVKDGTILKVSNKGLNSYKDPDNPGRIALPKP
Oligonucleotide | E-score
CTTCAAGC | -0.0472
GATACTCA | 0.0471
ACCTGCTG | -0.125
CCTCTATA | -0.0797
ACGCACCA | 0.129
ATCCGTAG | 0.0952
CACTTTTC | -0.124
ACTCTGAA | -0.143
AACTGACT | -0.00844
GAAATTGC | -0.0315
CTTCCTTC | -0.088

Series 3
Target: Sal-like protein 4, full length isoform A (SALL4, Homo sapiens, UniProt Q9UJQ4, residues 1-1053)
UniProt Q9UJQ4, sequence (whole entry, looked up): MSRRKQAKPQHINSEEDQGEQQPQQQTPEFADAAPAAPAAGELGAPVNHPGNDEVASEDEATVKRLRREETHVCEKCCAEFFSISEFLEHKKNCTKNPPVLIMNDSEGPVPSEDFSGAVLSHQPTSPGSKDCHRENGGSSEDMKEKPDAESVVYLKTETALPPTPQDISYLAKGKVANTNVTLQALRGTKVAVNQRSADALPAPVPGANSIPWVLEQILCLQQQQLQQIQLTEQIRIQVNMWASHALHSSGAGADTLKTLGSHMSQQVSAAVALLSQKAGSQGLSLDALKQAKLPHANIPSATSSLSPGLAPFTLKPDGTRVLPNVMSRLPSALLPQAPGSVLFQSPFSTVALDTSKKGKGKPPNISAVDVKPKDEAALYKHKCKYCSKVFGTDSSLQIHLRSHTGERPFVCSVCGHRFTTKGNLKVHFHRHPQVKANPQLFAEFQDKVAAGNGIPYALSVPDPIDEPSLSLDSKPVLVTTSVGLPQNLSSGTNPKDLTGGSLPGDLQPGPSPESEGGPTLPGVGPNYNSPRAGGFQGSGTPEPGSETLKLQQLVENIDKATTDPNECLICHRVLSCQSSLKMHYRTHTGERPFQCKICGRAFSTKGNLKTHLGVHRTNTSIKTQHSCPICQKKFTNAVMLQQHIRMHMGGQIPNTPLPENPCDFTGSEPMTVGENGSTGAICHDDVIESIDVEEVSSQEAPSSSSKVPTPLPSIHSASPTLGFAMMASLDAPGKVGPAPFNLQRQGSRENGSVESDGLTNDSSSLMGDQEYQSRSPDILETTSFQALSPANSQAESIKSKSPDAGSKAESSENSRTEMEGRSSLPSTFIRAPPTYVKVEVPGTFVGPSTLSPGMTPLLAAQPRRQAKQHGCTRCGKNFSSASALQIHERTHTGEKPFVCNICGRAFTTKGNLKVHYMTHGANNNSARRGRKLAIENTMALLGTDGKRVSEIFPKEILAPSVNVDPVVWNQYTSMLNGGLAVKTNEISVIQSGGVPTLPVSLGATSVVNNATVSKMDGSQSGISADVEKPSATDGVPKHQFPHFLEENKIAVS
Technique: universal PBM
Form: double-stranded DNA, one strand shown
Medium: in vitro
Tested at: 600 nM
Setting: 8-mer, flanks averaged, mean of replicates
Direction: higher = stronger binding
Oligonucleotide | E-score
GCTAGCAC | -0.227
AACTGCGT | -0.00426
ACTTGCGC | -0.1
AGGGGTAT | -0.152
CGTATCAG | -0.0861
AAAAGCAT | 0.228
AGGCTGTC | -0.226
CTCCTAAG | -0.177
CTCCATTA | 0.121
CTTACCCA | 0.139
ATTTCCCG | 0.122
GGACCTTA | -0.115

Mixed results
Substance | target | assay | test system | setting | scale | quantity | result
PhoQ, residues 284 288 289 292 302 303 SVHLDV | PhoP, residues 12 14 15 18 19 NQFFI (Escherichia coli, UniProt P23836) | Sort-seq, refers to: YFP reporter | E. coli | PhoQ-PhoP variant library, together with: 10 µM Mg2+ | relative to: high Mg2+ state, higher = stronger signaling | fold induction | 11.7

Repeated from above (series 1):
Oligonucleotide | fitted relative affinity
GACGGTTTCGGACTAGGGACGTGCTAG | 6.79 z-score
TCAGTTTTGTGTCTGGGACTGTGCTAG | 0.303 z-score
TTAGGTCTCGGTATCTGTTAGTGCTAG | 4.93 z-score
TCATATATACAAACTAAGACTGTGCTA | 0.529 z-score
